Measured values gathered from unrelated publications.
A part holds a random share of what one study measured. “And” joins repeats or separate records; there may be more than shown.
Sequence of UniProt Q96RR4 (whole entry, looked up): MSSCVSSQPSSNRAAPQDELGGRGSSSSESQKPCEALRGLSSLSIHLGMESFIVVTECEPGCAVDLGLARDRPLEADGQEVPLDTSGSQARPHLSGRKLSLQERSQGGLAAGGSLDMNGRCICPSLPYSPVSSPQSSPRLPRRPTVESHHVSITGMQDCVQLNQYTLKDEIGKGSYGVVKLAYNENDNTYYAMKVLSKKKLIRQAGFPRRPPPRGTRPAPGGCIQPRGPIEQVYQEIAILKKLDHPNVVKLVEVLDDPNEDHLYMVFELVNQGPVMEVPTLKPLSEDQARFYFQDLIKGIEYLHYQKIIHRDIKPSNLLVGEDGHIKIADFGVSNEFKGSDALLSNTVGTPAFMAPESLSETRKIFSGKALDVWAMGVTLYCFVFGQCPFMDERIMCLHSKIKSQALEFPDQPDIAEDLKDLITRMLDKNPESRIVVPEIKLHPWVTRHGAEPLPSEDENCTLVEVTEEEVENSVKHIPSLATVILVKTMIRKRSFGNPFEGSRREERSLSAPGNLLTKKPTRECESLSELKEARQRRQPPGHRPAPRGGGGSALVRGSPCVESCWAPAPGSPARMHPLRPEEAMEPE
Sequence of UniProt P29376 (whole entry, looked up): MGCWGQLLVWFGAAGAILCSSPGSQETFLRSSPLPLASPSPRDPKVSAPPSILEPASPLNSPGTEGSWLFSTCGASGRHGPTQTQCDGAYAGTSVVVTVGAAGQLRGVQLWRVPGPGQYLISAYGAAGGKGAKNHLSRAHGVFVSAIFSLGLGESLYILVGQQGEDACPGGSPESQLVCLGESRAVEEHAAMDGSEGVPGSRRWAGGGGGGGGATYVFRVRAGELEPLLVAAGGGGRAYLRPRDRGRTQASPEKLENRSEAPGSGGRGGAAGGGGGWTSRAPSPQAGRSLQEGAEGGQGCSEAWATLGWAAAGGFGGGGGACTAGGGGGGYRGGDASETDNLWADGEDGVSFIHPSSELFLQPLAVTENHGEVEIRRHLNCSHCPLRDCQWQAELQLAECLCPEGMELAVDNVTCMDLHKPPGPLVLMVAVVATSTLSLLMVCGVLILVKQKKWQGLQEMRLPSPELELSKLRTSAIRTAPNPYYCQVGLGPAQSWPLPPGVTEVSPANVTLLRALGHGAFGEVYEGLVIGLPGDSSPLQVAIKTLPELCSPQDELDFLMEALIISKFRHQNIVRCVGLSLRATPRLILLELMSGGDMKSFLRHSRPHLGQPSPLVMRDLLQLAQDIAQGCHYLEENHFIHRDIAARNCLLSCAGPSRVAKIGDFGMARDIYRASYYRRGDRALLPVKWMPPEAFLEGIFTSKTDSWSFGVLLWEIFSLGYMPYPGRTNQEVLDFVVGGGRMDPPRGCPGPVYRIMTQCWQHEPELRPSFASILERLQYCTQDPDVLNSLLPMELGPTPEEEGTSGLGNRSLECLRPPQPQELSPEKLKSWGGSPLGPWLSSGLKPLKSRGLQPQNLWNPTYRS
Sequence of UniProt Q6XUX3 (whole entry, looked up): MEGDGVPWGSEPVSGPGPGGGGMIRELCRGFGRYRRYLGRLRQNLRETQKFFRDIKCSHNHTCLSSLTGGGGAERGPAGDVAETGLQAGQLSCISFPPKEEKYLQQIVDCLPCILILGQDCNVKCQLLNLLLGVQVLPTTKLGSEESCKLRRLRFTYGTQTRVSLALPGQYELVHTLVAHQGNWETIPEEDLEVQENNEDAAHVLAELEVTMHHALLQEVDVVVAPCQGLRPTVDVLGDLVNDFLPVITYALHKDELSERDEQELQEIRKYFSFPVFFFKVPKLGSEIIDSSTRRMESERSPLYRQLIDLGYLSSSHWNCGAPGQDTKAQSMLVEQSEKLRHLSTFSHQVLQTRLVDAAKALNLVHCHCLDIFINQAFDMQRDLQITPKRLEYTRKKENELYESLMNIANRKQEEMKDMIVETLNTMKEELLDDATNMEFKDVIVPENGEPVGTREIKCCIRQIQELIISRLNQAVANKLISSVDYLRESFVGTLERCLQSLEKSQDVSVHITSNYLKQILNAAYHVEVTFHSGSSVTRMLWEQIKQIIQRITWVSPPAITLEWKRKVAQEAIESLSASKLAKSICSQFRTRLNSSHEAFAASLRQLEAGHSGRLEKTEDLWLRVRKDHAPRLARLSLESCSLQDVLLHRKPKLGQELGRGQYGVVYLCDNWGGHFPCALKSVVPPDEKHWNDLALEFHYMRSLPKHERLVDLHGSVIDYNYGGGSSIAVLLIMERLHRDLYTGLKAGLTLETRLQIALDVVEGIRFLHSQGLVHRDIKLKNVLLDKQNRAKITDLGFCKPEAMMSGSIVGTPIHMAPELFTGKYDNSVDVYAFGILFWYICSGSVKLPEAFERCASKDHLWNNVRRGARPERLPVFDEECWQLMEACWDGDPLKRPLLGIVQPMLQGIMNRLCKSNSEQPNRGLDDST
Sequence of UniProt O94804 (whole entry, looked up): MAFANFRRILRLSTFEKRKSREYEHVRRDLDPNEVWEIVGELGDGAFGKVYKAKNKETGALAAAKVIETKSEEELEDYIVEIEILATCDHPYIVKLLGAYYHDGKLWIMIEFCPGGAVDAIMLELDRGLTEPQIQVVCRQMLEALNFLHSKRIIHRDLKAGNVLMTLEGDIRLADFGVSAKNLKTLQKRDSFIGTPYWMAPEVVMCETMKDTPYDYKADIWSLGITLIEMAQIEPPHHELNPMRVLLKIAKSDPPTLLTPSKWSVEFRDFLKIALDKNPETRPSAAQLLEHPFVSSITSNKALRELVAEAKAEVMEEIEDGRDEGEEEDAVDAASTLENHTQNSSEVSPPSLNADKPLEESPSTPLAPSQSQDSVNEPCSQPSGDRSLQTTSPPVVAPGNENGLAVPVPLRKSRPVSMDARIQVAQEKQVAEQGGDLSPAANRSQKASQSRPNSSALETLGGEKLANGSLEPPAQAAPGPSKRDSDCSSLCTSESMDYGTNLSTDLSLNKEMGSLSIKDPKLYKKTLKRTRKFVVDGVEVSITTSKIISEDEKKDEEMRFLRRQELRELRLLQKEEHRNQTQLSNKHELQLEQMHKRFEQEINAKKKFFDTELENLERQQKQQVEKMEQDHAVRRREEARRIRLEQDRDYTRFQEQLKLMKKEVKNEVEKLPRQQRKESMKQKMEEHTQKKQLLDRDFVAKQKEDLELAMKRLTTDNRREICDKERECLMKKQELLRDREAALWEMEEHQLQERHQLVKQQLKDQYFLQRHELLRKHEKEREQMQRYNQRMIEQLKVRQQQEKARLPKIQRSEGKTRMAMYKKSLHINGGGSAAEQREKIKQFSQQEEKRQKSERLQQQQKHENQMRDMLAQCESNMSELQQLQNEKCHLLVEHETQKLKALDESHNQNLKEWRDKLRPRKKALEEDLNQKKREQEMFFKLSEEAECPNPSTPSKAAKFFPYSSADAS
Sequence of UniProt O96017 (whole entry, looked up): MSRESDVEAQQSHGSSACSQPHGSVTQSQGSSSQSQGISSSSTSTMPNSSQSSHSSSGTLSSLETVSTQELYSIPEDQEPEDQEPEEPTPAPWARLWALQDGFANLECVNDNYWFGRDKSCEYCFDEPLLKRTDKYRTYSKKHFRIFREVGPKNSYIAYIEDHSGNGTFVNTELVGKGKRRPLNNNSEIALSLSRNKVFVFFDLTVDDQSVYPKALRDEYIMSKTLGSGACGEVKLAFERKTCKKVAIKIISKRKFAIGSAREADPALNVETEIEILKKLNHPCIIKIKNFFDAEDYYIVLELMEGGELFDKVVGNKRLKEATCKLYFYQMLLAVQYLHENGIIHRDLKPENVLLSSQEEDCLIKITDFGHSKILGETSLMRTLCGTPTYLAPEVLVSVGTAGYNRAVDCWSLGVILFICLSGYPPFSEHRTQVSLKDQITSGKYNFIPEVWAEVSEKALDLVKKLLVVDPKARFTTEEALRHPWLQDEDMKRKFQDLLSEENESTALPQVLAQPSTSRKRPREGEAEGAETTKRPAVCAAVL
Sequence of UniProt P49674 (whole entry, looked up): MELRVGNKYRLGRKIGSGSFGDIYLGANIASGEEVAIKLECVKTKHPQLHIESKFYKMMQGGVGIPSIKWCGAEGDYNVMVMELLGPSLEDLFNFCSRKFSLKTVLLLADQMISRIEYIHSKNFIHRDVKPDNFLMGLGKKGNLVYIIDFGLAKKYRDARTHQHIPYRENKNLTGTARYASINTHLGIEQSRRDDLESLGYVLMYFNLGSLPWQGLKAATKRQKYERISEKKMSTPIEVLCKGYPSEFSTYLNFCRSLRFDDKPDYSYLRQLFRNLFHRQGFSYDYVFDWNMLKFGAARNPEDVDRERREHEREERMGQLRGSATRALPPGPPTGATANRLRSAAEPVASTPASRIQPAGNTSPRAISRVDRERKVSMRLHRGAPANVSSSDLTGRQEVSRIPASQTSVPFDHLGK
Sequence of UniProt Q13976 (whole entry, looked up): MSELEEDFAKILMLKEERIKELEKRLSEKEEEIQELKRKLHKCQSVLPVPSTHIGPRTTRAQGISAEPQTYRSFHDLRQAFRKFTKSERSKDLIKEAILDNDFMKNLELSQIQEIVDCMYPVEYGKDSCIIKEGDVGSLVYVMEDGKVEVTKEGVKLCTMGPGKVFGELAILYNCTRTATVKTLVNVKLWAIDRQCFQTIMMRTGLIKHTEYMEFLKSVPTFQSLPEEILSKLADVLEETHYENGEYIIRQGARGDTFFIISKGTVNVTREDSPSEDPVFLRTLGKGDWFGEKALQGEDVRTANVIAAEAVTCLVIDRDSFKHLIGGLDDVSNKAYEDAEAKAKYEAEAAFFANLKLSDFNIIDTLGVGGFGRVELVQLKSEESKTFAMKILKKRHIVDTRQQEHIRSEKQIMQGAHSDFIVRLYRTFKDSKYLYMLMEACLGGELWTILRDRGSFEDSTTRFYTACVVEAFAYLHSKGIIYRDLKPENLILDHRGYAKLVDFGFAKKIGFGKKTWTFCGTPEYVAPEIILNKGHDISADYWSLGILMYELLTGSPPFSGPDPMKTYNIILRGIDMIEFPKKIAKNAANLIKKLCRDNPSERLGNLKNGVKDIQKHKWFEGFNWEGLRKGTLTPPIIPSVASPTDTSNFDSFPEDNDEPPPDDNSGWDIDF

Sample 1
Cell line: HuT78
Concentration: 2 µM
Time: 48 h
Relative to: untreated
With `Cn1cc(/C=C2\C(=O)Nc3cccnc32)c2ccccc21` the viability was 117%.
`O=S(=O)(NCCNC/C=C/c1ccc(Br)cc1)c1cccc2cnccc12` gave a viability of 120%.
For `COc1cc(F)c(F)c(Nc2ccc(I)cc2F)c1NS(=O)(=O)C1(C[C@H](O)CO)CC1`, the viability was 93.5%.
The viability of `CCCCCCCCCCCCc1ccc(S(=O)(=O)Nc2nncs2)cc1` is reported as 114%.
`CCCCCCCCCCCCCCCc1cccc(O)c1C(=O)O` has a viability of 112%.
With `COc1c(C)c(C(=O)c2ccc(N)c(C(=O)O)c2)n2ccccc12` the viability was 117%.
For `C=CC(=O)Nc1cccc(Nc2nc(Nc3ccc(N4CCN(C(C)=O)CC4)cc3OC)ncc2C(F)(F)F)c1`, the viability was 76.2%.
`COc1nccc(-c2c(-c3ccc(F)cc3)ncn2[C@H]2CC[C@H](O)CC2)n1` has a viability of 91%.
With `Cn1cnc2c(F)c(Nc3ccc(Br)cc3F)c(C(=O)NOCCO)cc21` the viability was 110%.
`Cc1cnc(Nc2ccc(N3CCN(C)CC3)cc2)nc1Nc1cccc(S(=O)(=O)NC(C)(C)C)c1` gave a viability of 83.4%.
With `COc1cc2ncnc(Nc3cccc(Cl)c3)c2cc1OC` the viability was 128%.
The viability of `CNC(=O)c1ccccc1Nc1nc(Nc2ccc(N3CCOCC3)cc2OC)ncc1Cl` is reported as 89.4%.

Sample 2
Compound: c1ccc(Oc2ccc(Nc3c4c(nc5ccccc35)CCC4)cc2)cc1
Organism: Leishmania donovani
Strain: DD8
Sample: promastigotes
For 1.66 µM, 48 h: promastigote number read 135000.
0.03 µM, 72 h — promastigote number: 9.76e+06 and 9.85e+06.
It gave 5.66e+06 and 5.65e+06 for promastigote number (0.66 µM, 72 h).
6.66 µM, 72 h — promastigote number: 1570 and 1260.
16.66 µM, 48 h — promastigote number: 1240.
The promastigote number was 15600 and 15700 (3.33 µM, 72 h).
For 66.66 µM, 48 h: promastigote number read 1680.
For 1.66 µM, 72 h: promastigote number read 135000.
3.33 µM, 48 h — promastigote number: 15700 and 15600.
66.66 µM, 72 h — promastigote number: 1350 and 1590.
For 0.03 µM, 48 h: promastigote number read 4.35e+06 and 4.37e+06.

Sample 3
SMILES: Nc1cnc(N2CCc3cc(S(=O)(=O)Nc4c(F)cc(Cl)cc4F)cc(N4CCCC4=O)c32)nc1
Observed: cell-free assay
Method: competition with immobilised ligand
Concentration: 1 µM
The remaining binding was 63% (Epidermal growth factor receptor (EGFR, Homo sapiens, UniProt P00533, A750P/del747-749)).
For Tyrosine-protein kinase ABL1, phosphorylated (ABL1, Homo sapiens, UniProt P00519): remaining binding read 97%.
Ephrin type-B receptor 2 (EPHB2, Homo sapiens, UniProt P29323) — remaining binding: 87%.
The remaining binding was 100% (Cyclin-dependent kinase 14 (CDK14, Homo sapiens, UniProt O94921)).
For Calcium/calmodulin-dependent protein kinase kinase 2 (CAMKK2, Homo sapiens, UniProt Q96RR4): remaining binding read 100%.
The remaining binding was 100% (Phosphatidylinositol 3-kinase catalytic subunit type 3 (PIK3C3, Homo sapiens, UniProt Q8NEB9)).
It gave 100% for remaining binding (Leukocyte tyrosine kinase receptor (LTK, Homo sapiens, UniProt P29376)).
It gave 89% for remaining binding (Casein kinase I isoform epsilon (CSNK1E, Homo sapiens, UniProt P49674)).
For MAP kinase-interacting serine/threonine-protein kinase 1 (MKNK1, Homo sapiens, UniProt Q9BUB5): remaining binding read 98%.
It gave 80% for remaining binding (Cyclin-dependent kinase 15 (CDK15, Homo sapiens, UniProt Q96Q40)).
For Tyrosine-protein kinase ABL1, phosphorylated (ABL1, Homo sapiens, UniProt P00519, Y253F): remaining binding read 94%.
The remaining binding was 100% (Homeodomain-interacting protein kinase 3 (HIPK3, Homo sapiens, UniProt Q9H422)).
The remaining binding was 100% (Receptor tyrosine-protein kinase erbB-4 (ERBB4, Homo sapiens, UniProt Q15303)).
It gave 100% for remaining binding (Cyclin-G-associated kinase (GAK, Homo sapiens, UniProt O14976)).
For Receptor-type tyrosine-protein kinase FLT3 (FLT3, Homo sapiens, UniProt P36888, K663Q): remaining binding read 97%.
Dual specificity protein kinase CLK2 (CLK2, Homo sapiens, UniProt P49760) — remaining binding: 100%.
It gave 100% for remaining binding (Serine/threonine-protein kinase Nek6 (NEK6, Homo sapiens, UniProt Q9HC98)).
The remaining binding was 100% (Insulin receptor-related protein (INSRR, Homo sapiens, UniProt P14616)).
For Phosphatidylinositol 5-phosphate 4-kinase type-2 beta (PIP4K2B, Homo sapiens, UniProt P78356): remaining binding read 100%.
The remaining binding was 97% (Serine/threonine-protein kinase Nek4 (NEK4, Homo sapiens, UniProt P51957)).
The remaining binding was 100% (Dual serine/threonine and tyrosine protein kinase (DSTYK, Homo sapiens, UniProt Q6XUX3)).
Activin receptor type-2A (ACVR2A, Homo sapiens, UniProt P27037) — remaining binding: 67%.
Calcium/calmodulin-dependent protein kinase type II subunit beta (CAMK2B, Homo sapiens, UniProt Q13554) — remaining binding: 100%.
Ribosomal protein S6 kinase alpha-3, C-terminal kinase domain (RPS6KA3, Homo sapiens, UniProt P51812) — remaining binding: 84%.
For Serine/threonine-protein kinase Nek7 (NEK7, Homo sapiens, UniProt Q8TDX7): remaining binding read 96%.

Sample 4
Structure (SMILES): COc1cc2c(Nc3ccc(Br)cc3F)ncnc2cc1OCC1CCN(C)CC1
Observed: enzyme activity
Action: inhibitor
Concentration: 0.5 µM
Relative to: control
It gave 102% for remaining activity (TGF-beta receptor type-1 (TGFBR1, Homo sapiens, UniProt P36897)).
For Protein kinase C beta type, isoform beta-I (PRKCB, Homo sapiens, UniProt P05771): remaining activity read 89.1%.
Calcium/calmodulin-dependent protein kinase kinase 2 (CAMKK2, Homo sapiens, UniProt Q96RR4) — remaining activity: 102%.
The remaining activity was 99.8% (cGMP-dependent protein kinase 1, isoform beta (PRKG1, Homo sapiens, UniProt Q13976)).
For Death-associated protein kinase 1 (DAPK1, Homo sapiens, UniProt P53355): remaining activity read 105%.
For Calcium/calmodulin-dependent protein kinase type II subunit delta (CAMK2D, Homo sapiens, UniProt Q13557): remaining activity read 95.8%.
It gave 102% for remaining activity (Mitogen-activated protein kinase kinase kinase 3 (MAP3K3, Homo sapiens, UniProt Q99759)).
For Serine/threonine-protein kinase STK11 (STK11, Homo sapiens, UniProt Q15831): remaining activity read 105%.
For Serine/threonine-protein kinase 10 (STK10, Homo sapiens, UniProt O94804): remaining activity read 21.3%.
It gave 16.7% for remaining activity (Tyrosine-protein kinase Lyn, isoform B (LYN, Homo sapiens, UniProt P07948)).
It gave 93.3% for remaining activity (Death-associated protein kinase 2 (DAPK2, Homo sapiens, UniProt Q9UIK4)).
It gave 87.7% for remaining activity (Inhibitor of nuclear factor kappa-B kinase subunit beta (IKBKB, Homo sapiens, UniProt O14920)).
cAMP-dependent protein kinase catalytic subunit alpha (PRKACA, Homo sapiens, UniProt P17612) — remaining activity: 92.8%.
It gave 62.1% for remaining activity (Serine/threonine-protein kinase Chk2 (CHEK2, Homo sapiens, UniProt O96017)).
The remaining activity was 97.4% (STE20/SPS1-related proline-alanine-rich protein kinase (STK39, Homo sapiens, UniProt Q9UEW8)).
For Mitogen-activated protein kinase 9 (MAPK9, Homo sapiens, UniProt P45984): remaining activity read 96.4%.
For G protein-coupled receptor kinase 3 (GRK3, Homo sapiens, UniProt P35626): remaining activity read 97.4%.
For Cyclin-dependent kinase 4, with cyclin D1 (CDK4, Homo sapiens, UniProt P11802): remaining activity read 94.8%.
It gave 102% for remaining activity (TGF-beta receptor type-2 (TGFBR2, Homo sapiens, UniProt P37173)).
The remaining activity was 100% (Serine/threonine-protein kinase OSR1 (OXSR1, Homo sapiens, UniProt O95747)).
Inhibitor of nuclear factor kappa-B kinase subunit epsilon (IKBKE, Homo sapiens, UniProt Q14164) — remaining activity: 85.8%.
Cyclin-dependent kinase 5, with p25 (CDK5, Homo sapiens, UniProt Q00535) — remaining activity: 97.8%.
For Protein kinase C alpha type (PRKCA, Homo sapiens, UniProt P17252): remaining activity read 97.1%.

Excerpt of the above (sample 3):
For Tyrosine-protein kinase ABL1, phosphorylated (ABL1, Homo sapiens, UniProt P00519): remaining binding read 97%.
Ephrin type-B receptor 2 (EPHB2, Homo sapiens, UniProt P29323) — remaining binding: 87%.
The remaining binding was 100% (Cyclin-dependent kinase 14 (CDK14, Homo sapiens, UniProt O94921)).
For Calcium/calmodulin-dependent protein kinase kinase 2 (CAMKK2, Homo sapiens, UniProt Q96RR4): remaining binding read 100%.
The remaining binding was 100% (Phosphatidylinositol 3-kinase catalytic subunit type 3 (PIK3C3, Homo sapiens, UniProt Q8NEB9)).
It gave 100% for remaining binding (Leukocyte tyrosine kinase receptor (LTK, Homo sapiens, UniProt P29376)).
